Published values pooled from the literature.
Lines come from different studies, so protocols differ. “And” joins repeats or separate records; there may be more than shown. Numbers after ± are the reported error.
CYP2E1: Cytochrome P450 2E1 (CYP2E1, Homo sapiens, UniProt P05181)
UniProt P05181, sequence (whole entry, looked up): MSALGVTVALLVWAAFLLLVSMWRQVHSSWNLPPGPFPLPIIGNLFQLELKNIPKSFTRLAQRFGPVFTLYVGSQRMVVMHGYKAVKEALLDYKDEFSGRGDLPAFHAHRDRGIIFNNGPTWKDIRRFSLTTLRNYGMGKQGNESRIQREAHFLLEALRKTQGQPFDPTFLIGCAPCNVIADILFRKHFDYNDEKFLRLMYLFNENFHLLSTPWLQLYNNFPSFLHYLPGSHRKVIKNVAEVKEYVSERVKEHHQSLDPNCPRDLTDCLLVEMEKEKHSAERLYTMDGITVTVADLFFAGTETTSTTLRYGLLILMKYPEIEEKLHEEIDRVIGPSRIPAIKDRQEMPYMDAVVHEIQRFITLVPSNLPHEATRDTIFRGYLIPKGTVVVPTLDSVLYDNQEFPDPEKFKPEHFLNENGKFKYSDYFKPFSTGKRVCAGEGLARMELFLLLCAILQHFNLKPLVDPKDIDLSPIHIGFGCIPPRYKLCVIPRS
FLP: Female-specific lacrimal gland protein (FLP, Mesocricetus auratus, UniProt Q99MG7)
UniProt Q99MG7, sequence (whole entry, looked up): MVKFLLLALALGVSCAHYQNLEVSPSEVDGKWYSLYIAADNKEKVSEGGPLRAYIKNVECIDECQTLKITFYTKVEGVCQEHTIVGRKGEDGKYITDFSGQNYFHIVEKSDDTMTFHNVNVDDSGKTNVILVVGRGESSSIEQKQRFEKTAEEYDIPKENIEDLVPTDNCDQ
KAT8: Histone acetyltransferase KAT8 (KAT8, Homo sapiens, UniProt Q9H7Z6)
UniProt Q9H7Z6, sequence (whole entry, looked up): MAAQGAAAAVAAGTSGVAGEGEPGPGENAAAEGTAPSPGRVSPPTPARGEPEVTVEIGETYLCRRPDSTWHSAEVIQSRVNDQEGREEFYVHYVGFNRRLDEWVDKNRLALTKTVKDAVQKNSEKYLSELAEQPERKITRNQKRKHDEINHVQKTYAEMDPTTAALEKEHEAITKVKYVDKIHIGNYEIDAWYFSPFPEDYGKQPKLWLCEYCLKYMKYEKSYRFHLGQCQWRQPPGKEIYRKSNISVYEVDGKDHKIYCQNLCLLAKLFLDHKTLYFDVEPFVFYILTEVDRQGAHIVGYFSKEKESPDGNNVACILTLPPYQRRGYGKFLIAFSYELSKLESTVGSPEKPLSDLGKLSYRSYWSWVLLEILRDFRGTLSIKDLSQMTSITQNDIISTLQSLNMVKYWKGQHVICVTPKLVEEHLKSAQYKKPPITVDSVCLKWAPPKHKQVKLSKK
SHMT1: Serine hydroxymethyltransferase, cytosolic (SHMT1, Homo sapiens, UniProt P34896)
UniProt P34896, sequence (whole entry, looked up): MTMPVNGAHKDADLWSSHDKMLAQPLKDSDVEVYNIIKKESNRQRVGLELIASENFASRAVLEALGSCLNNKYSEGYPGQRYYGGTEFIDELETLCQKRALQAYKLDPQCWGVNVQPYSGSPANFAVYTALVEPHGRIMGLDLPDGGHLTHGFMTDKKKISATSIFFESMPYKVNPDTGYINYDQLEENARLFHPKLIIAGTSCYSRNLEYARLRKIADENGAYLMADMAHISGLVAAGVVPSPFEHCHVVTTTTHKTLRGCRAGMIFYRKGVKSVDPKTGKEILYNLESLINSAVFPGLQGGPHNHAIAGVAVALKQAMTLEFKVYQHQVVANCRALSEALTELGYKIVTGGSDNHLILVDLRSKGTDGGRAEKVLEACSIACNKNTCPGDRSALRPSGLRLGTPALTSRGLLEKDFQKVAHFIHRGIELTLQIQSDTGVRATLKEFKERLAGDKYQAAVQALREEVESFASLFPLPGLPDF
Lrrk2: Leucine-rich repeat serine/threonine-protein kinase 2 (Lrrk2, Mus musculus, UniProt Q5S006)
UniProt Q5S006, sequence (whole entry, looked up): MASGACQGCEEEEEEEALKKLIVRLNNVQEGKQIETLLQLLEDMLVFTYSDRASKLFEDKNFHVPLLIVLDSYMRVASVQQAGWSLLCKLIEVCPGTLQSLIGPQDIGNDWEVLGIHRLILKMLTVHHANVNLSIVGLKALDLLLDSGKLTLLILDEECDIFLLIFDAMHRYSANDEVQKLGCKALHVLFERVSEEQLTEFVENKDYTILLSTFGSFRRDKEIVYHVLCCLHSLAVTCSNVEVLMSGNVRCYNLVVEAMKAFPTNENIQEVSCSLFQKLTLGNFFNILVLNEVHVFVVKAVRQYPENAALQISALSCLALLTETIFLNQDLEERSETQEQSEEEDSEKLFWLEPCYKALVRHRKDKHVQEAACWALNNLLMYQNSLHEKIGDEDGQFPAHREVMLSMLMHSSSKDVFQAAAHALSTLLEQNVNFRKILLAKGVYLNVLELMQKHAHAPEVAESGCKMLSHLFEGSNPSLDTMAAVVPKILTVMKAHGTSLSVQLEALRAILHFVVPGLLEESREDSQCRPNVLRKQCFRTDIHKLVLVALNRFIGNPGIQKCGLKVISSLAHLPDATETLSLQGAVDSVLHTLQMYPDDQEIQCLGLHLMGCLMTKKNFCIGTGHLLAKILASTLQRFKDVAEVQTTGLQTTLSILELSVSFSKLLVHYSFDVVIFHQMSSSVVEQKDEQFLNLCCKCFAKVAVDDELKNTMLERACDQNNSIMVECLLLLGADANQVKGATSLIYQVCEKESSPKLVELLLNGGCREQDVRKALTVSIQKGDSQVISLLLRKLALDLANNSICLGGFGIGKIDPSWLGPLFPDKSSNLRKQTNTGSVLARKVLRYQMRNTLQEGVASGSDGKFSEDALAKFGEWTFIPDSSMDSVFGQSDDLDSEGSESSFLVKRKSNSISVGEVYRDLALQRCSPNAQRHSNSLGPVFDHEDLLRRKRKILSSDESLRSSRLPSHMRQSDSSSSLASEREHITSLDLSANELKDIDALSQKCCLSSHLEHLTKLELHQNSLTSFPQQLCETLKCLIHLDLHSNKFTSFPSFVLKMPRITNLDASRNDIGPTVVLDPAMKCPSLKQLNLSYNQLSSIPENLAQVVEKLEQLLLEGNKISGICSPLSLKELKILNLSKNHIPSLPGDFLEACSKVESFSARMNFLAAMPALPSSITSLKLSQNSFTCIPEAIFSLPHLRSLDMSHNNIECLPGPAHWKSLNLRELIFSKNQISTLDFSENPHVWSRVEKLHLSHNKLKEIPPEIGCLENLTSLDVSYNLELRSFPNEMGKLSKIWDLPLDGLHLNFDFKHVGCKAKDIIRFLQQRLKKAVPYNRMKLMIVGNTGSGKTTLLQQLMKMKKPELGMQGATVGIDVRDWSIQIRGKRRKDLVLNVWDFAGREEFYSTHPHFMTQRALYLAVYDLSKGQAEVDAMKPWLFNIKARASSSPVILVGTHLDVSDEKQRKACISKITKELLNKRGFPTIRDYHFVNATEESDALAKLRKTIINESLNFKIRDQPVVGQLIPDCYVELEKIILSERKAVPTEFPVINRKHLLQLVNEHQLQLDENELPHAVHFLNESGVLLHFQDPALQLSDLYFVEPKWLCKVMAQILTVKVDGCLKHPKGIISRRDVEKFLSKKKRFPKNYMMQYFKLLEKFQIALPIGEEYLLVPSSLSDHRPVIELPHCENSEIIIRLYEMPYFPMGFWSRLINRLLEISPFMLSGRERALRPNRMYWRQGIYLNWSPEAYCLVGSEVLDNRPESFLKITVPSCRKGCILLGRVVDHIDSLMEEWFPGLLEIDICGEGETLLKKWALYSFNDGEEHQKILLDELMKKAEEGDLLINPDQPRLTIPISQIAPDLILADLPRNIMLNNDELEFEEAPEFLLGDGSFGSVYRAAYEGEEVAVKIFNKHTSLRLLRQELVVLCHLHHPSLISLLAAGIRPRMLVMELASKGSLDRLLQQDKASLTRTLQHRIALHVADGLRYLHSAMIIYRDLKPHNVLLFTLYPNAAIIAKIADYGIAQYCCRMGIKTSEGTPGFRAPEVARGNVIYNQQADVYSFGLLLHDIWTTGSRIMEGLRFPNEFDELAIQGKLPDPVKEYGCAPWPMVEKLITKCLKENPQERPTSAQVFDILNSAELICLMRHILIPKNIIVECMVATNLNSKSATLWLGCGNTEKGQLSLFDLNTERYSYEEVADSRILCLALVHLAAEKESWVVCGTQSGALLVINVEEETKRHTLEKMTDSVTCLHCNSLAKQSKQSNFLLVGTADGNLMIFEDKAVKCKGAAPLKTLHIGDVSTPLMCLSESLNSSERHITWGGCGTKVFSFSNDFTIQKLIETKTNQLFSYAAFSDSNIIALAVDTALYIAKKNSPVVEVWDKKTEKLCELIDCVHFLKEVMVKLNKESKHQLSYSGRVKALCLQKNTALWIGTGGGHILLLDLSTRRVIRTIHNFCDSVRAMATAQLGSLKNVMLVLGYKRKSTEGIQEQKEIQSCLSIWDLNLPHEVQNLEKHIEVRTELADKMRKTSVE
UniProt Q16696, sequence (whole entry, looked up): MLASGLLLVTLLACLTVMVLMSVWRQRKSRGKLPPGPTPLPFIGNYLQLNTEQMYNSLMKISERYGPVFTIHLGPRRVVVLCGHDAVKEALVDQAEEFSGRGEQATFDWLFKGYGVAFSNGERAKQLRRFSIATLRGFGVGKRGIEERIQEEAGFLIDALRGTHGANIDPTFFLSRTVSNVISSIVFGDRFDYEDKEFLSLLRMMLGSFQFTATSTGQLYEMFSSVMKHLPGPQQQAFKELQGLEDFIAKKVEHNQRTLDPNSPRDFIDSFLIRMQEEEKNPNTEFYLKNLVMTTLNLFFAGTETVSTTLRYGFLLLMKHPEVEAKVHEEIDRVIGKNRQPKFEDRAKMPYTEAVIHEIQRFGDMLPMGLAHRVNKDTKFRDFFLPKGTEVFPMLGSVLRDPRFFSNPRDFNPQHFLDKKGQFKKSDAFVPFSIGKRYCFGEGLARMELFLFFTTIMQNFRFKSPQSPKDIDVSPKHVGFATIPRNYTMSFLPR
UniProt P0ADI4, sequence (whole entry, looked up): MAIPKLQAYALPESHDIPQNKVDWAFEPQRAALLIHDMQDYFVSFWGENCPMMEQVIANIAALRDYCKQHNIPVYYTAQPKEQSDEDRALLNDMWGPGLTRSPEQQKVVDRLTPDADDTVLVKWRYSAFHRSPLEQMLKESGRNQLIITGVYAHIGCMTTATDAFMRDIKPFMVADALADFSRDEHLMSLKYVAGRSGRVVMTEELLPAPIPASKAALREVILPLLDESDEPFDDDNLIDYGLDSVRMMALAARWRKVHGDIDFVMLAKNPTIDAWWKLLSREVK

CCCCCCCCCCCCCCCCCCNCCCc1ccc([N+](=O)[O-])cc1  Ki (Tmem97 (Rattus norvegicus, UniProt Q5U3Y7); [3H]-DTG displacement; rat liver membranes; together with: (+)-pentazocine 100 nM): 9 ± 0.4 µM
CCCN(CCC1(O)CC(NC(=O)c2ccc(Cl)cc2)C1)[C@H]1CCc2nc(N)sc2C1 (stereo in doubt)  Ki (dopamine D2-like receptor, rat; radioligand binding; rat striatal membranes; high-affinity component, together with: [3H]spiperone): 0.244 ± 0.046 µM
CCCC/C=C/C=O  Ki (CYP2E1; competitive inhibitor; human liver S9; 30 min, pH 7.4, together with: p-nitrophenol substrate): 5.6 ± 0.1 µM
Nc1ccn([C@@H]2O[C@H](COP(=O)(O)O)[C@@H](O)[C@H]2O)c(=O)n1  Ki (Phosphopantothenoylcysteine synthetase (Enterococcus faecalis, UniProt Q830W3); enzyme activity, inhibitor; pH 7.6, 37 °C, competitive versus CTP, together with: CTP): 766 ± 90 µM
CCCN(CCC1(O)CC(NC(=O)c2ccc(-c3noc(C)n3)cc2)C1)[C@H]1CCc2nc(N)sc2C1 (stereo in doubt)  Ki (dopamine D2-like receptor, rat; radioligand binding; rat striatal membranes; high-affinity component, together with: [3H]spiperone): 14.6 ± 1.28 µM
CC(C)=CCC[C@@H](C)CC=O (racemic)  Ki (FLP; binding, fluorescence displacement; together with: 1-NPN 2 µM): 0.19 µM
NC(=O)c1ncn([C@H]2[C@H](O)[C@H](O)[C@]3(CO)C[C@H]23)n1  Ki (off-target receptors and transporters, human; radioligand binding; PDSP screen): > 1 µM
CCCN(CCC1(O)CC(NS(=O)(=O)c2cccc(F)c2)C1)[C@H]1CCc2nc(N)sc2C1 (stereo in doubt)  Ki (dopamine D2-like receptor, rat; radioligand binding; rat striatal membranes; high-affinity component, together with: [3H]spiperone): 0.11 ± 0.014 µM
CC1=NN(c2ccc(C(=O)O)cc2)C(=O)/C1=C/c1ccc(-c2cc(C)c(C)cc2[N+](=O)[O-])o1  Ki (KAT8; enzyme activity, inhibitor; up to 400 µM, together with: 4 µM acetyl-CoA, 60 µM histone substrate): no inhibition
C[C@H]1O[C@@H](n2ccc(=O)[nH]c2=O)[C@H](O)[C@@H]1O  Ki (uracil transporter; uracil uptake, inhibitor; Trypanosoma brucei brucei, bloodstream form; 30 s, together with: 0.15 µM [3H]-uracil): > 2500 µM
[Ca+2]  Ki (Cyclic nucleotide-gated channel alpha-2 (CNGA2, Bos taurus, UniProt Q03041, E340G); single-channel current, blocker, outside-out patch; E340G mutant, -80 mV, together with: cGMP 1 mM): 8800 µM
Cc1nc2ccc(CN(C)c3ccc(C(=O)N[C@@H](CCC(=O)O)C(=O)O)s3)cc2c(=O)[nH]1  Ki (SHMT1; enzyme activity, absorbance; pH 7.2): 122 µM
CCCCCCCCCC=O  Ki (FLP; binding, fluorescence displacement; together with: 1-NPN 2 µM): 1.15 µM
Nc1ncnc2c1ncn2[C@@H]1O[C@H](COP(=O)(O)OP(=O)(O)NP(=O)(O)O)[C@@H](O)[C@H]1O  Ki (Lrrk2; enzyme activity, inhibitor, TR-FRET; Ki,e, together with: ATP varied, PLK-peptide substrate): 300 ± 30 µM
CCCN(CCC1(O)CC(NC(=O)c2ccccc2OC)C1)[C@H]1CCc2nc(N)sc2C1 (stereo in doubt)  Ki (dopamine D2-like receptor, rat; radioligand binding; rat striatal membranes; high-affinity component, together with: [3H]spiperone): 0.158 ± 0.025 µM
Cn1ccc(=O)[nH]c1=O  Ki (uracil transporter; uracil uptake, inhibitor; Trypanosoma brucei brucei, bloodstream form; 30 s, together with: 0.15 µM [3H]-uracil): > 5000 µM
CCOC(=O)[C@]1(CS)N[C@H](C(=O)O)C(C)(C)S1  Ki (sfhI (Serratia fonticola, UniProt Q9RMI1); enzyme activity, inhibitor; pH 7.5, 30 °C, together with: imipenem substrate): 1.3 ± 0.1 µM
CCCCCC(C)=O  Ki (FLP; binding, fluorescence displacement; together with: 1-NPN 2 µM): 14.1 µM
O=C(O)c1cccc(O)c1O  Ki (Enterobactin synthase component B (entB, Escherichia coli, UniProt P0ADI4); isochorismatase activity, inhibitor, LDH-coupled): 200 µM and ~200 µM
CCCN(CCC1(O)CC(NS(=O)(=O)c2ccccc2F)C1)[C@H]1CCc2nc(N)sc2C1 (stereo in doubt)  Ki (dopamine D2-like receptor, rat; radioligand binding; rat striatal membranes; high-affinity component, together with: [3H]spiperone): 0.619 ± 0.068 µM
O=c1[nH]ccc(=S)[nH]1  Ki (uracil transporter; uracil uptake, inhibitor; Trypanosoma brucei brucei, bloodstream form; 30 s, together with: 0.15 µM [3H]-uracil): 159 ± 24 µM
Nc1nc2c(ncn2[C@@H]2O[C@H](COP(=O)(O)OP(=O)(O)O)[C@@H](O)[C@H]2O)c(=O)[nH]1  Ki (Lrrk2; GTPase activity, inhibitor, radiometric TLC; together with: GTP): 49 µM
CC(=O)N[C@H](CSSC[C@H](N)C(=O)O)C(=O)N[C@H](C)C(=O)N[C@H](CCCNC(=N)N)C(=O)N[C@H](CCCNC(=N)N)C(=O)N[C@H](CCCNC(=N)N)C(=O)N[C@H](C)C(=O)N[C@H](CCCNC(=N)N)C(N)=O  Ki (CASR (Homo sapiens, UniProt P41180); allosteric activator, population PK/PD model; haemodialysis patients with secondary hyperparathyroidism; intravenous): 0.6 µM
Nc1ccc(N=Nc2ccc(-c3ccc(N=Nc4ccc(N)c5ccc(S(=O)(=O)O)cc45)cc3)cc2)c2cc(S(=O)(=O)O)ccc12  Ki (SLC7A11 (Homo sapiens, UniProt Q9UPY5); transporter uptake, inhibitor, radiometric): 4.3 µM
CCCCCn1c(=O)n(CCCCN2CCN(c3ccc(F)cc3)CC2)c2ccccc21  Ki (rat NMDA receptor PCP site; rat brain membranes; together with: [3H]TCP): > 10 µM
CC(C)[C@@H]1CC[C@@H](C)C[C@H]1O  Ki (Cytochrome P450 2A13 (Homo sapiens, UniProt Q16696); enzyme activity, inhibitor; 10 min, pH 7.4): 8.2 µM and 8.17 µM
NCCCNc1ncnc2c1ncn2[C@@H]1O[C@H](CN(CC#Cc2cccc(C(N)=O)c2)CC[C@H](N)C(=O)O)[C@@H](O)[C@H]1O  Ki (NNMT (Homo sapiens, UniProt P40261); ligand displacement, FP): 0.31 µM
CCCCCCCCCCC=O  Ki (CYP2E1; competitive inhibitor; human liver S9; 30 min, pH 7.4, together with: p-nitrophenol substrate): 117 ± 15 µM
O=C1O[C@H](CO)[C@@H](O)[C@H](O)[C@H]1O  Ki (beta-glucosidase (Penicillium italicum); non-competitive inhibitor; up to 0.8 mM, pH 4.5, 60 °C, together with: pNP-glucoside): 11300 µM
O=c1[nH]cc(I)c(=O)[nH]1  Ki (uracil transporter; uracil uptake, inhibitor; Trypanosoma brucei brucei, bloodstream form; 30 s, together with: 0.15 µM [3H]-uracil): 1300 ± 70 µM
C[C@@H]1O[C@@H](Oc2cc(O)c3c(=O)c(O)c(-c4ccc(O)c(O)c4)oc3c2)[C@H](O)[C@H](O)[C@H]1O  Ki (Replicase polyprotein 1ab, main protease (Feline coronavirus, UniProt Q98VG9); enzyme activity, inhibitor, fluorescence): 45.2 µM
CC1=NN(c2ccc(S(=O)(=O)O)cc2)C(=O)C1  Ki (Ubiquitin-associated and SH3 domain-containing protein B, phosphatase domain (UBASH3B, Homo sapiens, UniProt Q8TF42); phosphatase activity, competitive inhibitor; together with: pNPP): 48 µM and 48.3 µM
Nc1nc2c(c(=O)[nH]1)C[C@@H](CCc1ccc(C(=O)N[C@@H](CCC(=O)O)C(=O)O)cc1)CN2  Ki (SHMT1; enzyme activity, absorbance; pH 7.2): 23 µM
C=Cc1ccc(O)cc1  Ki (CYP2E1; inhibitor; 30 min, pH 7.4): 230 µM
Nc1ncnc2c1ncn2[C@@H]1O[C@H](COP(=O)(O)OP(=O)(O)C(Cl)(Cl)P(=O)(O)O)[C@@H](O)[C@H]1O  Ki (JAK3 (Homo sapiens, UniProt P52333); enzyme activity, inhibitor): 0.004 to 0.011 µM
O=C(O)c1c(O)cccc1CCCCCO  Ki (KAT8; enzyme activity, inhibitor; up to 400 µM, together with: 4 µM acetyl-CoA, 60 µM histone substrate): no inhibition
CC1(CCN2CCc3ccccc3C2)Cc2cc(Cl)ccc2C1=O (stereo not drawn)  Ki (HTR2A (Homo sapiens, UniProt P28223); radioligand binding; together with: [3H]Ketanserin): 0.871 µM
Cc1cc(=O)[nH]c(=O)[nH]1  Ki (uracil transporter; uracil uptake, inhibitor; Trypanosoma brucei brucei, bloodstream form; 30 s, together with: 0.15 µM [3H]-uracil): > 5000 µM
Nc1ncnc2c1ncn2[C@@H]1O[C@H](COP(=O)(O)O)[C@@H](O)[C@H]1O  Ki (Lrrk2; enzyme activity, inhibitor): 2200 µM
CCCN(CCC1(O)CC(NS(=O)(=O)c2ccc(OC)cc2)C1)[C@H]1CCc2nc(N)sc2C1 (stereo in doubt)  Ki (dopamine D2-like receptor, rat; radioligand binding; rat striatal membranes; high-affinity component, together with: [3H]spiperone): 0.102 ± 0.015 µM
CCCCCCCCCCO  Ki (FLP; binding, fluorescence displacement; together with: 1-NPN 2 µM): 1.83 µM
CC[N+](CC)(CC)CC  Ki (Sh (Drosophila melanogaster, UniProt P08510, C301S/C308S/del6-46/T449F); potassium current, blocker, voltage clamp; Xenopus oocytes; 50 mV holding potential): 390 ± 40 µM
O=C(OCc1ccccc1)c1ccccc1  Ki (FLP; binding, fluorescence displacement; together with: 1-NPN 2 µM): 6.43 µM
O=c1[nH]cc(Br)c(=O)[nH]1  Ki (uracil transporter; uracil uptake, inhibitor; Trypanosoma brucei brucei, bloodstream form; 30 s, together with: 0.15 µM [3H]-uracil): 180 ± 36 µM
CCCN(CCC1(O)CC(NC(=O)c2ccccc2)C1)[C@H]1CCc2nc(N)sc2C1 (stereo in doubt)  Ki (dopamine D2-like receptor, rat; radioligand binding; rat striatal membranes; high-affinity component, together with: [3H]spiperone): 0.224 ± 0.009 µM
Nc1ncnc2c1ncn2[C@@H]1O[C@H](COP(=O)(O)OP(=O)(O)O)[C@@H](O)[C@H]1O  Ki (Lrrk2; enzyme activity, inhibitor, radiometric; Ki,e, together with: LRRKtide substrate varied): 100 ± 10 µM
CCCCC/C=C/C=O  Ki (CYP2E1; competitive inhibitor; human liver S9; 30 min, pH 7.4, together with: p-nitrophenol substrate): 4.1 ± 0.1 µM
CCCN(CC[C@]1(O)C[C@@H](NC(=O)c2cccc(F)c2)C1)[C@H]1CCc2nc(N)sc2C1 (relative stereo)  Ki (dopamine D2-like receptor, rat; radioligand binding; rat striatal membranes; high-affinity component, together with: [3H]spiperone): 0.264 ± 0.046 µM
